# Assay results gathered from unrelated publications.
# Each line is one published result; not all experiments were run side by side. Numbers after ± are the reported error.
# Organism: Acinetobacter baumannii
Structure (SMILES),test,test system,conditions,how to read,MIC
CC[C@@H](C)[C@@H](NC(=O)[C@@H](C)NC(=O)[C@@H](CCCCN)NC(=O)[C@@H](CC(C)C)NC(=O)[C@@H](C)NC(=O)[C@H](NC(=O)[C@@H](Cc1c[nH]cn1)NC(=O)[C@@H](CC(C)C)NC(=O)[C@H](NC(=O)[C@H](NC(=O)[C@@H](CCCCN)NC(=O)[C@@H](CCCCN)NC(=O)[C@@H](C)NC(=O)[C@@H](CO)NC(=O)[C@@H](CCCCN)NC(=O)[C@@H](Cc1ccccc1)NC(=O)[C@H](NC(=O)[C@@H](CCCCN)NC(=O)[C@@H](CC(C)C)NC(=O)[C@@H](Cc1ccccc1)NC(=O)[C@@H](CO)NC(=O)[C@@H](CCCCN)NC(=O)[C@@H](Cc1c[nH]c2ccccc12)NC(=O)[C@@H](CCCCN)NC(C)=O)[C@H](C)O)[C@H](C)O)C(C)C)[C@H](C)O)C(=O)N[C@H](CO)C(=O)N[C@H](CO)C(N)=O,,"821, Mueller-Hinton broth","24 h, 37 °C",,1.5 µM
CC(C)C[C@H](NC(=O)[C@H](Cc1ccc(O)cc1)NC(=O)[C@@H]1CCCN1C(=O)[C@H](CCCNC(=N)N)NC(=O)[C@@H]1CCCN1C(=O)[C@H](CCCCN)NC(=O)[C@H](CC(=O)O)NC(=O)[C@@H]1CCCN1C(=O)[C@H](CCCNC(=N)N)NC(=O)C1(N)CCCCC1)C(=O)N1CCC[C@H]1C(=O)N[C@@H](CCCNC(=N)N)C(=O)N1CCC[C@H]1C(=O)N[C@@H](CCCNC(=N)N)C(=O)N1CCC[C@H]1C(=O)N1CCC[C@H]1C(=O)N[C@@H](CCCNC(=N)N)C(=O)N1CCC[C@H]1C(=O)N[C@H](C(=O)N[C@@H](CCCNC(=N)N)C(=O)N[C@@H](CSCc1ccc(CSC[C@H](NC(=O)[C@H](CCCNC(=N)N)NC(=O)[C@@H](NC(=O)[C@@H]2CCCN2C(=O)[C@H](CCCNC(=N)N)NC(=O)[C@@H]2CCCN2C(=O)[C@@H]2CCCN2C(=O)[C@H](CCCNC(=N)N)NC(=O)[C@@H]2CCCN2C(=O)[C@H](CCCNC(=N)N)NC(=O)[C@@H]2CCCN2C(=O)[C@H](CC(C)C)NC(=O)[C@H](Cc2ccc(O)cc2)NC(=O)[C@@H]2CCCN2C(=O)[C@H](CCCNC(=N)N)NC(=O)[C@@H]2CCCN2C(=O)[C@H](CCCCN)NC(=O)[C@H](CC(=O)O)NC(=O)[C@@H]2CCCN2C(=O)[C@H](CCCNC(=N)N)NC(=O)C2(N)CCCCC2)C(C)C)C(=O)NN)cc1)C(=O)NN)C(C)C,bacterial growth,"ATCC 19606, 100% Mueller-Hinton broth","90 min, 37 °C, strain ATCC 19606",,13.1 ± 0.7 µg/mL
CC(C)C[C@H](NC(=O)[C@H](CCCCN)NC(=O)[C@H](CCCCNC(=O)[C@H](CC(C)C)NC(=O)[C@H](CCCCN)NC(=O)[C@H](CCCCNC(=O)[C@H](CC(C)C)NC(=O)[C@H](CCCCN)NC(=O)[C@H](CCCCNC(=O)[C@H](CC(C)C)NC(=O)[C@@H](N)CCCCN)NC(=O)[C@H](CC(C)C)NC(=O)[C@@H](N)CCCCN)NC(=O)[C@H](CC(C)C)NC(=O)[C@H](CCCCN)NC(=O)[C@H](CCCCNC(=O)[C@H](CC(C)C)NC(=O)[C@@H](N)CCCCN)NC(=O)[C@H](CC(C)C)NC(=O)[C@@H](N)CCCCN)NC(=O)[C@H](CC(C)C)NC(=O)[C@H](CCCCN)NC(=O)[C@H](CCCCNC(=O)[C@H](CC(C)C)NC(=O)[C@H](CCCCN)NC(=O)[C@H](CCCCNC(=O)[C@H](CC(C)C)NC(=O)[C@@H](N)CCCCN)NC(=O)[C@H](CC(C)C)NC(=O)[C@@H](N)CCCCN)NC(=O)[C@H](CC(C)C)NC(=O)[C@H](CCCCN)NC(=O)[C@H](CCCCNC(=O)[C@H](CC(C)C)NC(=O)[C@@H](N)CCCCN)NC(=O)[C@H](CC(C)C)NC(=O)[C@@H](N)CCCCN)C(N)=O,broth microdilution,ATCC 19606,37 °C,,4 µg/mL
CC(C)[C@@H]1NC(=O)[C@@H]2CCCN2C(=O)[C@@H](C)NC(=O)[C@H](CO)NC(=O)[C@H](C)NC(=O)[C@H](C(C)(C)C)NC(=O)[C@H](CCO)NC(=O)[C@H](Cc2c[nH]c3ccccc23)NC(=O)[C@H](CCO)NC(=O)[C@@H](CCN)NC(=O)[C@H](CCC(N)=O)NC(=O)[C@H](CCN)NC(=O)[C@H](Cc2ccc(O)cc2)NC(=O)[C@H]([C@@H](C)O)NC1=O,broth microdilution,"ATCC 9955, CAMHB with polysorbate-80",16 h,,> 64 µg/mL
CC[C@H](C)[C@H](NC(=O)[C@@H](CCCNC(=N)N)NC(=O)[C@H](CCCNC(=N)N)NC(=O)[C@@H]1CCCN1C(=O)[C@H](Cc1c[nH]c2ccccc12)NC(=O)[C@H](CCCNC(=N)N)NC(=O)[C@@H]1CCCN1C(=O)[C@H](CCCNC(=N)N)NC(=O)[C@@H]1CCCN1C(=O)[C@H](CC(C)C)NC(=O)[C@H](Cc1ccc(O)cc1)NC(=O)[C@@H]1CCCN1C(=O)[C@@H]1CCCN1C(=O)[C@H](CCCCN)NC(=O)[C@H](CC(=O)O)NC(=O)[C@@H](N)C(C)C)C(=O)N[C@@H](Cc1ccc(O)cc1)C(=O)N[C@@H](CC(N)=O)C(=O)N[C@H](CCCNC(=N)N)C(N)=O,broth microdilution,DSM 30008,18 h,,16 µg/mL
CC(C)C[C@H](NC(=O)[C@H](Cc1ccc(O)cc1)NC(=O)[C@@H]1CCCN1C(=O)[C@H](CCCNC(=N)N)NC(=O)[C@@H]1CCCN1C(=O)[C@H](CCCCN)NC(=O)[C@H](CC(=O)O)NC(=O)[C@@H]1CCCN1C(=O)[C@H](CCCNC(=N)N)NC(=O)C1(N)CCCCC1)C(=O)N1CCC[C@H]1C(=O)N[C@@H](CCCNC(=N)N)C(=O)N1CCC[C@H]1C(=O)N[C@@H](CCCNC(=N)N)C(=O)N1CCC[C@H]1C(=O)N1CCC[C@H]1C(=O)N[C@@H](CCCNC(=N)N)C(=O)N1CCC[C@H]1C(=O)N[C@H](C(=O)N[C@@H](CCCNC(=N)N)C(=O)N[C@@H](CSCc1ccccc1CSC[C@H](NC(=O)[C@H](CCCNC(=N)N)NC(=O)[C@@H](NC(=O)[C@@H]1CCCN1C(=O)[C@H](CCCNC(=N)N)NC(=O)[C@@H]1CCCN1C(=O)[C@@H]1CCCN1C(=O)[C@H](CCCNC(=N)N)NC(=O)[C@@H]1CCCN1C(=O)[C@H](CCCNC(=N)N)NC(=O)[C@@H]1CCCN1C(=O)[C@H](CC(C)C)NC(=O)[C@H](Cc1ccc(O)cc1)NC(=O)[C@@H]1CCCN1C(=O)[C@H](CCCNC(=N)N)NC(=O)[C@@H]1CCCN1C(=O)[C@H](CCCCN)NC(=O)[C@H](CC(=O)O)NC(=O)[C@@H]1CCCN1C(=O)[C@H](CCCNC(=N)N)NC(=O)C1(N)CCCCC1)C(C)C)C(=O)NN)C(=O)NN)C(C)C,bacterial growth,"ATCC 19606, 100% Mueller-Hinton broth","90 min, 37 °C, strain ATCC 19606",,16.2 ± 2.8 µg/mL
CCCCCCCC[C@H]1NC(=O)[C@H](CCN)NC(=O)[C@@H](NC(=O)[C@H](CCN)NC(=O)[C@@H](NC(=O)[C@H](CCN)NC(=O)c2ccc(-c3ccccc3)cc2)[C@@H](C)O)CCNC(=O)[C@H]([C@@H](C)O)NC(=O)[C@H](CCN)NC(=O)[C@H](CCN)NC(=O)[C@H](CC(C)C)NC1=O,,"ATCC 19606, CaMHB","18 h, 37 °C",,4 µg/mL
O=C(NCCNCCO)c1cn(Cc2ccccc2)c2cc(Cl)c(OCc3ccc(Cl)cc3)cc2c1=O,,ATCC 19606,,≥80% growth inhibition,< 0.25 µg/mL
C[C@@H](N)[C@H](O)CCCCCCCC(=O)CCCCCCCCCCCCCC[C@@H](O[C@@H]1O[C@H](CO)[C@@H](O)[C@H](O)[C@H]1O)[C@@H](N)CO,"microbial growth, resazurin",ATCC19606,6 h,,31.6 µM
CC[C@H](C)[C@H](NC(=O)[C@H](CCCN)NC(=O)[C@H](CC(N)=O)NC(=O)[C@H](CC(C)C)NC(=O)[C@H](Cc1ccccc1)NC(=O)[C@H](CCCN)NC(=O)[C@H](CCCCNC(=N)N)NC(=O)[C@H](CC(C)C)NC(=O)[C@H](CC(C)C)NC(=O)[C@H](CCCN)NC(=O)[C@H](CCCCNC(=N)N)NC(=O)[C@H](CC(C)C)NC(=O)CNC(C)=O)C(=O)N[C@@H](CCCN)C(=O)N[C@@H](CCCCNC(=N)N)C(N)=O,"bacterial growth, broth microdilution",multidrug-resistant,,,6.25 µM
CCCCCCCCCCCCCC(=O)N[C@H](CCN)C(=O)N[C@H](C(=O)N[C@@H](CCN)C(=O)N[C@@H](CC(C)C)C(=O)N[C@@H](CCN)C(=O)N[C@H](Cc1ccccc1)C(=O)N[C@@H](CC(C)C)C(=O)N[C@@H](CCN)C(=O)N[C@H](Cc1ccc(O)cc1)C(=O)N[C@H](C(=O)N[C@@H](CC(=O)O)C(=O)O)C(C)C)[C@@H](C)O,broth microdilution,BNCC 194496,,,2 µg/mL
CC[C@H](C)[C@H](NC(=O)[C@H](C)NC(=O)[C@@H](NC(=O)[C@H](CC(=O)O)NC(=O)[C@H](CCCCN)NC(=O)[C@H](CO)NC(=O)[C@@H](NC(=O)[C@H](CC(N)=O)NC(=O)[C@H](C)NC(=O)[C@@H](NC(=O)[C@H](CCC(=O)O)NC(=O)[C@H](CCCCN)NC(=O)[C@@H](NC(=O)[C@@H](NC(=O)[C@H](Cc1c[nH]cn1)NC(=O)[C@H](CCCCN)NC(=O)[C@@H](NC(=O)[C@H](CCCCN)NC(=O)[C@H](CCCCN)NC(=O)[C@@H](NC(=O)[C@H](CC(C)C)NC(=O)[C@H](CCCCN)NC(=O)[C@H](CC(N)=O)NC(=O)[C@H](Cc1ccccc1)NC(=O)[C@H](CCCNC(=N)N)NC(=O)[C@H](CCCCN)NC(=O)[C@H](CCCNC(=N)N)NC(=O)[C@H](Cc1ccccc1)NC(=O)CN)C(C)C)C(C)C)[C@@H](C)O)[C@@H](C)CC)[C@@H](C)O)C(C)C)C(C)C)C(=O)N[C@H](C(=O)N[C@@H](C)C(=O)NCC(=O)N[C@@H](CO)C(=O)NCC(=O)N[C@H](C(=O)N[C@@H](C)C(=O)N[C@H](C(=O)NCC(=O)N[C@@H](C)C(=O)N[C@@H](C)C(=O)N[C@@H](CCSC)C(N)=O)C(C)C)C(C)C)C(C)C,broth microdilution,"ATCC 19606, CAMHB",,,4 µg/mL

# Excerpt of the above:
Structure (SMILES),test,test system,conditions,how to read,MIC
CC[C@H](C)[C@H](NC(=O)[C@@H](CCCNC(=N)N)NC(=O)[C@H](CCCNC(=N)N)NC(=O)[C@@H]1CCCN1C(=O)[C@H](Cc1c[nH]c2ccccc12)NC(=O)[C@H](CCCNC(=N)N)NC(=O)[C@@H]1CCCN1C(=O)[C@H](CCCNC(=N)N)NC(=O)[C@@H]1CCCN1C(=O)[C@H](CC(C)C)NC(=O)[C@H](Cc1ccc(O)cc1)NC(=O)[C@@H]1CCCN1C(=O)[C@@H]1CCCN1C(=O)[C@H](CCCCN)NC(=O)[C@H](CC(=O)O)NC(=O)[C@@H](N)C(C)C)C(=O)N[C@@H](Cc1ccc(O)cc1)C(=O)N[C@@H](CC(N)=O)C(=O)N[C@H](CCCNC(=N)N)C(N)=O,broth microdilution,DSM 30008,18 h,,16 µg/mL
C[C@@H](N)[C@H](O)CCCCCCCC(=O)CCCCCCCCCCCCCC[C@@H](O[C@@H]1O[C@H](CO)[C@@H](O)[C@H](O)[C@H]1O)[C@@H](N)CO,"microbial growth, resazurin",ATCC19606,6 h,,31.6 µM
